Assay results of several laboratories.
Protocols differ between the studies behind these lines.

CC1(C)CCC(CN2CCN(c3ccc(C(=O)NS(=O)(=O)c4ccc(NCC5CCOCC5)c([N+](=O)[O-])c4)c(Oc4cnc5[nH]ccc5c4)c3)CC2)=C(c2ccc(Cl)cc2)C1  IC50 (CD19+ B cells from myeloma patients; cell viability, high-throughput flow cytometry): 0.00567 µM
Cc1c(C)c2c(c(C)c1O)CCC(C)(COc1ccc(CC3SC(=O)NC3=O)cc1)O2 (stereo not shown)  IC50 (hepatocytes, iPSC-derived, line W3; cell viability, RealTime-Glo MT; 72 h, differentiation day 23): 140 µM
O=C(Nc1c(Cl)cncc1Cl)c1ccc(OC(F)F)c(OCC2CC2)c1  IC50 (PBMC; cytokine release, MSD, refers to: IL-1β; 24 h, with: anti-CD3ε/anti-CD28): 0.0034 µM
CC(=O)[C@]1(O)Cc2c(O)c3c(c(O)c2[C@@H](O[C@H]2C[C@H](N)[C@H](O)[C@H](C)O2)C1)C(=O)c1ccccc1C3=O  IC50 (primary human intestinal proliferative cells; total cell number (DAPI); 48 h): 0.547 µM
C=CC(=O)Nc1cccc(Oc2nc(Nc3ccc(N4CCN(C)CC4)cc3)nc3ccoc23)c1  IC50 (TMD8 wild-type; calcium flux, FLIPR; 1 h preincubation, with: anti-IgM): 0.0506 µM
CC(=O)c1c(O)c(C)c(O)c2c1OC1=CC(=O)C(C(C)=O)C(=O)C12C (single isomer, unassigned; (+))  IC50 (hepatocytes, iPSC-derived, line W3; cell viability; 72 h): 43 µM
CCOc1cc([C@@H](CS(C)(=O)=O)N2C(=O)c3cccc(NC(C)=O)c3C2=O)ccc1OC  IC50 (PBMC; cytokine release, MSD, refers to: IL-2; 24 h, with: anti-CD3ε/anti-CD28): 0.029 µM
C=CC(=O)N1CCC([C@@H]2CCNc3c(C(N)=O)c(-c4ccc(Oc5ccccc5)cc4)nn32)CC1  IC50 (TMD8 wild-type; calcium flux, FLIPR; 4 h preincubation, with: anti-IgM): 0.0015 µM
O=C(O)COCC(=O)O  IC50 (hepatocytes, iPSC-derived, line L1; cell viability, RealTime-Glo MT; 48 h, differentiation day 23): 7110 µM
CCCCN1C[C@H](O)[C@@H](O)[C@@H](O)[C@H]1CO  IC50 (sample H patient fibroblasts; Gb3 level lowering, LC-MS/MS, refers to: Gb3 d18:1/20:0; 216 h): 17.3 µM

Excerpt of the above:
Cc1c(C)c2c(c(C)c1O)CCC(C)(COc1ccc(CC3SC(=O)NC3=O)cc1)O2 (stereo not shown)  IC50 (hepatocytes, iPSC-derived, line W3; cell viability, RealTime-Glo MT; 72 h, differentiation day 23): 140 µM
O=C(Nc1c(Cl)cncc1Cl)c1ccc(OC(F)F)c(OCC2CC2)c1  IC50 (PBMC; cytokine release, MSD, refers to: IL-1β; 24 h, with: anti-CD3ε/anti-CD28): 0.0034 µM
